Published values of several laboratories.
A part holds a random share of what one study measured. Changes are numbered by the printed parent chain.

Block 1
Target: CCNA2, cyclin fold, Cln2 fusion (human)
Method: yeast growth competition, sequencing
Sample: yeast
Notes: strong parent motif
Baseline: not given
Direction: higher = stronger binding
Starting sequence: SCAPER docking peptide (human); SNARRSLNFGGST; partner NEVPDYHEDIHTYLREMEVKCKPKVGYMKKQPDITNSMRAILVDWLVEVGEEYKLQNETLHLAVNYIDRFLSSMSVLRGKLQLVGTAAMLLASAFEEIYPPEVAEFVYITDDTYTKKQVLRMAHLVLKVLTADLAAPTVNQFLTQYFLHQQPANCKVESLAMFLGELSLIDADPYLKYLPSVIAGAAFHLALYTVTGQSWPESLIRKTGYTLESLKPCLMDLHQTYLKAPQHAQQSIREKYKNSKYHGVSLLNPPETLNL
Change | normalised enrichment score
SNARVSLNFGGST [R5V] | 3.16
SNARRKLNFGGST [S6K] | 6.62
LNARRSLNFGGST [S1L] | 6.34
KNARRSLNFGGST [S1K] | 6.08
SVARRSLNFGGST [N2V] | 5.83
SNARRSLNFGGWT [S12W] | 5.43
SKARRSLNFGGST [N2K] | 6.83
SNARRSLNFHGST [G10H] | 5.64
SNARRSLNCGGST [F9C] | 0.537
SNARRSLNFGGSA [T13A] | 6.27
SNARRSLNFGGSS [T13S] | 6.53
SNPRRSLNFGGST [A3P] | 4.71
STARRSLNFGGST [N2T] | 6.06
WNARRSLNFGGST [S1W] | 6.98
SNARRSLNFGRST [G11R] | 5.59
SNAHRSLNFGGST [R4H] | 2.83
SNARRSPNFGGST [L7P] | 0.678
SNARRMLNFGGST [S6M] | 6.57
SNVRRSLNFGGST [A3V] | 6.14

Block 2
Target: ABI1, truncated, D143A, DHFR fusion (Arabidopsis thaliana)
Method: DHFR PCA, deep sequencing
Sample: yeast
Notes: methotrexate growth selection, single substitutions
Together with: (+)-ABA 4.8 µM
Baseline: wild-type fitted maximum
Direction: higher = stronger binding
Starting sequence: PYL1, truncated, DHFR fusion (Arabidopsis thaliana); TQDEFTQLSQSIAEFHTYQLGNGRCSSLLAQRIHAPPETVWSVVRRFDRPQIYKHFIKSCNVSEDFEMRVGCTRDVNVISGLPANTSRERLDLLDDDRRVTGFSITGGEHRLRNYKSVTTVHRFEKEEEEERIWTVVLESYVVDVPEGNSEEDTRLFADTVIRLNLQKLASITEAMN; partner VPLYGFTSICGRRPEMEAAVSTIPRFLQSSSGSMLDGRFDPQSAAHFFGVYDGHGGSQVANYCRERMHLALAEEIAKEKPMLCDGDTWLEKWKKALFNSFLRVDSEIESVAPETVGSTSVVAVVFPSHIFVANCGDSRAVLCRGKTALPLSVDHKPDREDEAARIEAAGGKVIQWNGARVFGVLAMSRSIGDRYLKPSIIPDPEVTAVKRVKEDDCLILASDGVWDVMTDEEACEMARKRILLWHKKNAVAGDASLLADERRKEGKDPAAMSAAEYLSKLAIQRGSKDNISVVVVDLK
Change | relative binding score [%]
L82R | 0.553
S11W | 69.4
T154I | 24.1
S59E | 75.2
R123A | 80.1
V44M | 17.6
H110C | 2.35
G21M | 67.8
T160A | 16.1
Q19R | 73.7
I52L | 71.6
Q2K | 72.1
V145S | -2.4
D48P | -7.58

Block 3
Target: RNA binding protein fox-1 homolog 2, RRM domain, GST-SBP tag (RBFOX2, Homo sapiens, UniProt O43251-10, residues 100-194)
Method: RNA Bind-n-Seq
Form: RNA
Sample: in vitro
Tested at: 365 nM
Notes: natural RNA segment, single round, ends assumed
Baseline: no-protein control
Direction: higher = stronger binding
Constant ends, left off below: GGGAGUUCUACAGUCCGACGAUC … UGGAAUUCUCGGGUGCCAA
Residues (chain): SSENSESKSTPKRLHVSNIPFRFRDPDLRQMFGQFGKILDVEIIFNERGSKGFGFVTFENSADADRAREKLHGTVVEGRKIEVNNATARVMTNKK
Strand | RBNS enrichment (R)
CCCCAUUUGAGCUGCUCCUUCCUGUGUGUGCUCUGGGCCCUGCCUCGGCCUCCUGCGCCAAUACUGUGACUUCCAAACAAUGUUACUGCUGGGCACAGCUCUGCGUUGCU | 0.269
CUGGUUACAGUUGGAUCAAUCAGUAUAUAUCAGAUUUCUGGUGUUUCAAGCAAGAAGCGGGCGGAGUAAACGCGUGUGACCACUUAAAGCUGCUUGUUAACAUGGAAGAC | 0.534
CCUCCUGGGCACCCCGUGUGCUGUGAUCUCCUGGGCUUUCAGGCUUGACAUGCUGGUCUGGGGAGAGACAGGGCCUCUGCUGCCCUGUUCUUCACCCUCACAGUGAUACC | 0.297
UUAAGUCACCUUGUGCGAGAACCUCAACCGCACCUAUCUUGGGAACCGGGUAUACCCUUUUCUUUAGCACUGCUAUCCUUUUUGUCUUCAGCACAAAUAAGAUGUUCAAG | 0.703
GACCUGGGGUGGUGGGCAUCUGGCUGAACCUUGAGGAGGGAAAGCUUGCCUUCUAUUCAGUGGACAAUCAGGAGAAGCUUCUGUAUGAGUGUACCAUCUCUGCCUCCUCU | 0.553
GAUAUAUACUUUAUAUUGGGUAUGAGAGAUCUGUGUUUGGGUUUUAUAGAUUUUAGCUUUUGACACGUUUGCCUCUUUAAAUUUACUUUUCAUAAAUCCCCUUAUUAGAA | 1.88
CACCGGCAUUUCCUUCUUCCACCAGCUUUAAUGGAACUUUUUUUGGCACUGCUUUGCAUUGGAGUCAGUUGUAGUCCACAUAGCUGGCUGCAGAGAAAUCAGUCUUACCC | 0.453
UUACAUGAUGUGUGAUUUAGGGCUUAGUUAAUUCUCUAGAAUUCAAAAACUAUUAUUGAUGUAUUAAAAGAAAUUACGGUACCACGUUGAUUAGUCUGAAUGUUUGCAGG | 4.3
GCCCGUGGCCCUGCCUCCUAGUGCUCAGGACAGCUCAUUCUCUGUGCAACUUUCAGGAACUUUACUGCAGGUCAGUUAAACACAACUGUUACUGAAAACUAGAUGUAAAC | 0.491
UUUCCCUGUGUGGACCAUGGGGAUCAGAGUCUGGCCUGCCAGGCUCCUCUCCCCGUUUUCUCUUUUGGUGGGGGGGUGUGCUGUGGGUAUUCACCACCCUGGGACCCCCC | 0.262
GUUCUGCCCAGCCCCCGUCCCGCUCCCACCUAAAGCCUGAGUUGGCUGAGCCAAAUGCCCAGCACUGCCCCCACCUAACUGGGCACUUGUCUAGGGCACACCACCCCCAG | 0.42
CCAGGUGUGGAUUGACACACCUUUAGUCUCAGGACUGAGGAGGCGAGGCAAGCAGAUCCCUGAGUUUGAGGUAAGCCUGAUUUACAGAGCAAGUUCCAAGACACCAGGCA | 0.477

Block 4
Target: UBE2V1 UBC core domain (UniProt Q13404)
Method: yeast two-hybrid
Sample: yeast
Notes: mostly zero background
Baseline: not given
Direction: higher = stronger interaction
B1: TRIM26 RING domain (UniProt Q12899); chain PLRSLEEEVTCSICLDYLRDPVTIDCGHVFCRSCTTDVRPISGSRPVCPLCKKPFKKENIRP
B2: RNF152 RING domain (UniProt Q8N8N0); chain ETLSQDSLLECQICFNYYSPRRRPKLLDCKHTCCSVCLQQMRTSQKDVRCPWCRGVTKLPPGFS
B3: ANAPC11 RING domain (UniProt Q9NYG5); chain GICRMAFNGCCPDCKVPGDDCPLVWGQCSHCFHMHCILKWLHAQQVQQHCPMCRQEWKFKE
B4: RNF31 RING domain (UniProt Q96EP0); chain AFLRRLLAQECAVCGWALPHNRMQALTSCECTICPDCFRQHFTIALKEKHITDMVCPACGRPDLTDDTQLL
B5: RNF187 RING domain (UniProt Q5TA31); chain ALPAGPAEAACALCQRAPREPVRADCGHRFCRACVVRFWAEEDGPFPCPECADDCWQRAVEP
B6: RNF2 RING domain (UniProt Q99496); chain SPRSLHSELMCPICLDMLKNTMTTKECLHRFCADCIITALRSGNKECPTCRKKLVSKRSLR
B7: MEX3B RING domain (UniProt Q6ZN04); chain SGLRRKGSRDCSVCFESEVIAALVPCGHNLFCMECANRICEKSEPECPVCHTAVTQAIRIF
B8: TRIM54 RING domain (UniProt Q9BYV2); chain SMDNLEKQLICPICLEMFSKPVVILPCQHNLCRKCANDVFQASNPLWQSRGSTTVSSGGRFRCPSCRHEVVLDRHGV
B9: RNF183 RING domain (UniProt Q96D59); chain EQQGRELEAECPVCWNPFNNTFHTPKMLDCCHSFCVECLAHLSLVTPARRRLLCPLCRQPTVLASGQP
B10: RNF122 RING domain (UniProt Q9H9V4); chain AKKLQLYGQTCAVCLEDFKGKDELGVLPCQHAFHRKCLVKWLEVRCVCPMCNKPIASPSEAT
Residues (chain): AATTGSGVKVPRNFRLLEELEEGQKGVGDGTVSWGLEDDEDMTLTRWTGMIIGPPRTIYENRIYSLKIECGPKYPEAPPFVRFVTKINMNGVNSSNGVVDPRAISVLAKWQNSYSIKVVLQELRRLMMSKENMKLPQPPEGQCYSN
Molecule | lacZ reporter activity
B1 (TRIM26 RING domain) | 0
B2 (RNF152 RING domain) | 0
PEELAVNNDDCAICWDSMQAARKLPCGHLFHNSCLRSWLEQDTSCPTCRMSLNIADNNR (AMFR RING domain (UniProt Q9UKV5)) | 0
B3 (ANAPC11 RING domain) | 0
LDAASGHPLVCPLCHGQYERPCLLDCFHDFCTGCLRGRATDGRLSCPLCQHQTLVKGPSG (Rnf207 RING domain (UniProt Q3V3A7)) | 0
B4 (RNF31 RING domain) | 0
B5 (RNF187 RING domain) | 0
B6 (RNF2 RING domain) | 0
QVQSRTKIEECVVCSDKKAAVLFQPCGHMCACENCANLMKKCVQCRAVVERRVPFI (MIB1 RING domain (UniProt Q86YT6)) | 0
B7 (MEX3B RING domain) | 0
B8 (TRIM54 RING domain) | 0
B9 (RNF183 RING domain) | 0
B10 (RNF122 RING domain) | 0

For quick reference, copied from above (block 4):
Molecule | lacZ reporter activity
B7 (MEX3B RING domain) | 0
B6 (RNF2 RING domain) | 0
B4 (RNF31 RING domain) | 0
B3 (ANAPC11 RING domain) | 0
B8 (TRIM54 RING domain) | 0
QVQSRTKIEECVVCSDKKAAVLFQPCGHMCACENCANLMKKCVQCRAVVERRVPFI (MIB1 RING domain (UniProt Q86YT6)) | 0
B9 (RNF183 RING domain) | 0
LDAASGHPLVCPLCHGQYERPCLLDCFHDFCTGCLRGRATDGRLSCPLCQHQTLVKGPSG (Rnf207 RING domain (UniProt Q3V3A7)) | 0
B10 (RNF122 RING domain) | 0
PEELAVNNDDCAICWDSMQAARKLPCGHLFHNSCLRSWLEQDTSCPTCRMSLNIADNNR (AMFR RING domain (UniProt Q9UKV5)) | 0
